# Results from different studies.
# Protocols differ between the studies behind these lines.
# Cell line: T47D
Structure (SMILES),test,setting,how to read,measurement,result
COc1cccc2c1cc1c3c(cc4c(c32)OCO4)[C@@H]2c3c4c5c(cc6c(c5c5cccc(OC)c35)OCO6)CCN4[C@@H]2N1C (racemic),"cytotoxicity, MTT","50 µg/mL, 48 h",,inhibition,< 50%
N#CSCCCCCCOc1ccc2c(-c3ccccc3)cc(=O)oc2c1,"cell growth or viability, SRB",,,GI50,44 µM
COC(=O)N1c2ccc3c(nc(Cc4ccccc4)n3[C@@H]3CCC[C@@H](C(=O)O)C3)c2CC[C@@H]1C,"cell growth or viability, ATP luminescence",10 days,,IC50,2.16 µM
CNS(=O)(=O)Nc1nccc(Cc2c(C)c3ccc(Oc4ncccc4F)cc3oc2=O)c1F,cell viability,7 days,,IC50,> 1 µM
CN(C)CCN1CCN(c2ccc3nc(-c4ccc5nc(-c6ccc(C(F)(F)F)cc6)[nH]c5c4)[nH]c3c2)CC1,SRB,"10 µM, 48 h",,growth percent,61.4%
O=C(Nc1nnc2c1c(-c1ccc(Cl)cc1)nc1sc(=Cc3ccco3)c(=O)n12)c1ccccc1 (mixture of isomers),SRB,"10 µM, NCI60 single-dose screen",relative to: untreated,cell growth,48.8%
CC(C)=CC1OC(C)(C)C2C=C3C(=O)C(Cl)=CC(O)C3C3C(O)C4OC4C(=O)C132 (centres unmarked),"cell growth or viability, MTS",,,IC50,9.56 µM
CCCC(CCC)C(=O)OCc1cn(-c2cc3ccccc3oc2=O)nn1,NCI60 single-dose screen,10 µM,,growth percentage,98.7%
Cc1ccc([N+](=O)[O-])cc1S(=O)(=O)N(C)/N=C/c1cnc2ccc(Br)cn12,cell growth or viability,,,IC50,> 10 µM
N#C[Se]CCCCCCOc1ccc2c(-c3ccccc3)cc(=O)oc2c1,"cell growth or viability, SRB",,,GI50,11 µM
C1=[N+]2CCCC[N+]3=Cc4ccc5[n]4[Au-]23[n]2c1ccc2-c1nc2ccccc2nc1-5.F[P-](F)(F)(F)(F)F,NCI60 five-dose screen,,,TGI,4.59 -log M

# Some of these lines once more:
Structure (SMILES),test,setting,how to read,measurement,result
N#CSCCCCCCOc1ccc2c(-c3ccccc3)cc(=O)oc2c1,"cell growth or viability, SRB",,,GI50,44 µM
